Published values pooled from the literature.
A part holds a random share of what one study measured. Positions count from the first letter of the parent shown.

Set 1 — technique: universal PBM; molecule type: double-stranded DNA, one strand shown; sample: in vitro; tested at: not given; direction: higher = stronger binding
Target: Sal-like protein 4, full length isoform B (SALL4, Homo sapiens, UniProt Q9UJQ4-2, residues 1-616)
Setting: 8-mer, flanks averaged, mean of replicates
Construct (chain): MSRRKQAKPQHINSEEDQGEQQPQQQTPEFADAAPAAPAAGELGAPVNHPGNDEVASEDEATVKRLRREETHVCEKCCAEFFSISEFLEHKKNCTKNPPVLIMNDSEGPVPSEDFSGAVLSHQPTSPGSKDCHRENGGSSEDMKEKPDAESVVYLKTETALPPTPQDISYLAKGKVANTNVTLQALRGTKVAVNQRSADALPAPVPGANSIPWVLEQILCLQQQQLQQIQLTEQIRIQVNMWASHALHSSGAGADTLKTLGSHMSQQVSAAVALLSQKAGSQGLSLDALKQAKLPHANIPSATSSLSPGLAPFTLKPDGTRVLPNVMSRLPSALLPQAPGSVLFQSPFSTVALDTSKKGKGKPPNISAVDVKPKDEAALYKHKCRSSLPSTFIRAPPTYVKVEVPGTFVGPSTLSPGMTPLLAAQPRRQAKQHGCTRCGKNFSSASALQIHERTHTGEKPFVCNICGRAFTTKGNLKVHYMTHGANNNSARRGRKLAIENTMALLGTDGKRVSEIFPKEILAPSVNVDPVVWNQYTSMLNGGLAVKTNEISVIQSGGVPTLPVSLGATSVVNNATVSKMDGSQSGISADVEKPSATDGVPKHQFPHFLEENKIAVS
| Sequence | E-score |
| --- | --- |
| GTCGACGA | -0.163 |
| CTTATCTA | 0.272 |
| CTCTCCTA | 0.0577 |
| CAGAAACC | -0.161 |
| AGTACGTG | -0.0994 |
| GTGGGGCA | -0.328 |
| AGCATACT | 0.2 |
| AATTTCGA | 0.196 |
| GACAACCA | 0.0354 |
| AGCTTGCA | 0.0277 |
| ATCTAATA | 0.328 |
| CCGCTGGC | -0.329 |
| CTATTTAA | 0.214 |
| AAAACCTA | 0.179 |
| CTTTGGGC | -0.159 |
| GGATAGCA | 0.156 |
| ACAACCGA | -0.0289 |
| AGTCAGTG | 0.00904 |
| ACGATACC | 0.0673 |
| AATAACAT | 0.361 |
| AAGCAATC | 0.106 |
| GCTGCACC | -0.314 |
| GAAGAAGC | -0.14 |
| GGCCGGCA | -0.237 |
| AGTCCTCC | -0.0644 |

Set 2 — technique: protein binding microarray; molecule type: double-stranded DNA, one strand shown; sample: in vitro; tested at: not given; baseline: not given; direction: higher = stronger binding
Target: Histone acetyltransferase KAT6A, both winged helices, GST fusion (KAT6A, Homo sapiens, UniProt Q92794, residues 1-181)
Setting: 8-mer, flanks averaged, mean of 2 arrays, mostly near background
Construct (chain): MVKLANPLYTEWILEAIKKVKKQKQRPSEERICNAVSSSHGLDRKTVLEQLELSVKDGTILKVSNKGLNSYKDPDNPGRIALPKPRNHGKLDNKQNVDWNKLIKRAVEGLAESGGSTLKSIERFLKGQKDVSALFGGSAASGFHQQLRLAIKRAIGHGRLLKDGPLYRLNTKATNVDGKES
| Sequence | E-score |
| --- | --- |
| ACACCCAT | -0.0542 |
| TCCGTACA | 0.242 |
| AATAGGCC | -0.0282 |
| CCGTGTCA | 0.187 |
| GACCATCC | -0.00709 |
| CGTAGTAC | 0.073 |
| AATAGGAA | -0.145 |
| TGGCAAAA | -0.205 |
| ACCGACCC | 0.21 |
| GAATTTAC | 0.0097 |
| CATGCACC | 0.0275 |
| AGAAAAAG | -0.199 |
| CCACTCCC | -0.179 |
| GGCTGAAA | 0.00413 |
| AGCCCCGC | 0.0952 |
| AGAGGCTC | -0.106 |
| ACGGCGCT | 0.339 |
| GAGCGTGA | 0.204 |
| CGCACGAG | 0.144 |
| AAAGAATT | -0.0549 |
| CTGAGGCC | 0.0762 |
| CACCTGTA | -0.146 |
| AATCATAA | -0.146 |
| TATGCGAA | 0.103 |
| ACCAAGGG | -0.167 |

Set 3 — technique: RNA Bind-n-Seq; molecule type: RNA; sample: in vitro; tested at: not given; baseline: input RNA pool; direction: higher = stronger binding
Target: RING finger protein unkempt homolog, zinc fingers 1-6, GST-SBP tag (UNK, Homo sapiens, UniProt Q9C0B0, residues 30-357)
Chain of UniProt Q9C0B0 (30-357, looked up): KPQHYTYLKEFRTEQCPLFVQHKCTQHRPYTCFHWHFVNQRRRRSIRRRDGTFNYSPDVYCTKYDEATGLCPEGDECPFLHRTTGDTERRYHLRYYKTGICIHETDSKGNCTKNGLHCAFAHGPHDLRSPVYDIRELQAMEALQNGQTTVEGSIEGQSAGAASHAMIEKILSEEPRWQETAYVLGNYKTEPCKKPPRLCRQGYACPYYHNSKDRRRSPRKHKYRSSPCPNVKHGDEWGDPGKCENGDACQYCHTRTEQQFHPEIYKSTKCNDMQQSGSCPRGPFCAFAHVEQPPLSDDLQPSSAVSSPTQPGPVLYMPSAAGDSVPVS
Setting: RNA with constant flanks, human and mouse sites, ends assumed
All sequences stand within: GGGAGUUCUACAGUCCGACGAUC … CAACAGAGGAUUGAGCAUCA
| Sequence | bound/input enrichment [ratio] |
| --- | --- |
| CUGAAGGAAACAGCAUUUAAAUUUAAAGCCCUAAAGAAGGUUGCGCAGUUAGCAGUUAUAAAUAGCCUGGAAAAGGCAUUUUGGAACUGGGUAGAAAAUUAUCCAGAUGAAUUUACAAAA | 1.82 |
| AAUCUCUCUCUGAAUCGUUAUUUCAUCAAAGUGCCGCGUUCCCAGGAAGAACCAGGCAAAGGCUCGUUCUGGAGGAUAGACCCAGCCUCUGAAAGCAAAUUAAUAGAACAGGCUUUUAGG | 0.503 |
| CUUCCCCUUAAAUAAUUGUGUUCAUUUUUGUUUUGUUUCCUUGUGUACUCCAGCAUUGGUUAUAGUCAUGGGAAAGGAAGGUGUCCACGCAGGCACAAUUAACAAGAAAACAUAUGAACU | 0.283 |
| UCUUCCUCUACAGCUACAGCUUCCACACAGACGCAGCAUUCGGGAAUGUCCCCGUCACCUAGCAACAGUUAUGAUACUUCCCCACAGCCUUGCACUACCAAUCAAAAUGGGAGGGAGAAU | 0.321 |
| GAACACGGCAUCCAGCCCGAUGGCCAGAUGCCAAGUGACAAGACCAUUGGGGGAGGAGAUGAUUCCUUCAACACCUUCUUCAGUGAGACGGGGGCUGGCAAGCAUGUGCCCCGGGCAGUG | 0.129 |
| CUGCUCCUCUCCUGGGCGGCGGGGCUGGGAGGUCAGUAUGGAAAUCCUUUAAAUAAAUAUAUUAGACAUUAUGAAGGAUUAUCUUACAAUGUGGAUUCAUUACACCAAAAACACCAGCGU | 5.93 |
| GCCCAGGCAGCGGCGGCGGCGGCGGCGGUUCCUCUCGGGUUACGGUGAAGAAUGUCAGCCACUAGCGUGGAUCAGAGACCUAAAGGGCAAGGAAAUAAAGUUUCAGUACAAAAUGGUUCG | 0.147 |
| GAAGGUCUUGAAAUAGCAAUGAAACAGGCCCUAAGGAAAUCUGCUUGUCGAGUUUUUGCUAUGGAGGCUUUCAACUGGCUUCUGUGUAAUGUCAUCCAAACCACUUCUCUCCAUGAUAUU | 0.206 |

Set 4 — technique: EMSA with sequencing; molecule type: double-stranded DNA, one strand shown; sample: in vitro; tested at: 10 and 20 nM; baseline: negative control set to 0; direction: higher = stronger binding
Target: Hepatocyte nuclear factor 3-alpha (Foxa1, Mus musculus, UniProt P35582, residues 1-468, full length assumed)
Chain of UniProt P35582 (whole entry, looked up): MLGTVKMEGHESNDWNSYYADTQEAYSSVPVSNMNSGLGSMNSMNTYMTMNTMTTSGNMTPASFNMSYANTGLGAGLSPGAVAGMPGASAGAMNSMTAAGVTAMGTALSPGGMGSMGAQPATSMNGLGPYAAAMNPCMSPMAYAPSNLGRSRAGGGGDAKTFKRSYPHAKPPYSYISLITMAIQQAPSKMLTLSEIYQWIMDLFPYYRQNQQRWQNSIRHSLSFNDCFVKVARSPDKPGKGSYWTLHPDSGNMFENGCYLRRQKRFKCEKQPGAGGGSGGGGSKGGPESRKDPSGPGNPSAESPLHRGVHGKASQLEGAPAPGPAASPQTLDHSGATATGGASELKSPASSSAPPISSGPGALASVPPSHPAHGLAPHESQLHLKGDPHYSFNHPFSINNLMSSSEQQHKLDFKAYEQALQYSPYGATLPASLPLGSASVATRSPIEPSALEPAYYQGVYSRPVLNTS
Setting: whole designed probe, mean of two concentrations, ends assumed
| Sequence | normalised bound fraction [ratio] |
| --- | --- |
| GTGAGCGGTGCCCATTGATGGGGAACTTAAGTATGTTCCACAAGGAATAGTAAGTGATGGCATTCACTGAAATAGGAACTTTATCTAAATGTTTCCATGCATCCTTATTGTTATAATGAGTAAATAATAACAGTGGCCATATTAAAAATAGAATTACCCTTTTTGAATTAAAATTATGTATTTGAATTAGAAAAAAAGCATTTGAAACATGTATTTTTATTTCACTGGGATCGTGGGGAC | 0.27 |
| GTGAGCGGTGCCCATTGATGGGGAACATCTTCCCCCTCTTCCTTGCCCCACCAGCTCACCTTCCCGGGTTATTTGCAGATAGGAAAATAAATAAAGCCGGCATTCGTTAACCCTCTTCACGCGCATACTGCACATTGGTCTGGATGAATCATGGTCCTTTGGCGACGCCAGGCTCCGGGAGAGCAAAGCACCGTGTCAGGGCCATGATCCGGGGTGGCCTTTCACTGGGATCGTGGGGAC | 0.34 |
| GTGAGCGGTGCCCATTGATGGGGAACTGATGAGAAACATGATAATTATTTAGTCTGAAAGGATCTTCTCCAATAATTTTTTTTTGTCGTGATACATTCCTGACTTCTCCACCCCCAAATGCAAACAAACCTAAATTGAGGGAAATTCTATGCAATACCTAACCATTATTCATCAAATGTACACAGGAGTACAGTGACACAATCATGGTTCACTGTAACCTTTCACTGGGATCGTGGGGAC | 0.37 |
| GTGAGCGGTGCCCATTGATGGGGAACAGGAGATGCCCTTGCCCCTCCTCTCTGGTGACTCGGGGACACAGTGCCCTTCCCTAGGGAACAGACTTCAAACCCAGCTAAGACAGGGCCCCTGTTTACTCAGCAGAGTAGGCAAGAAAGTAACAGCTAGGTAGTGCCACACAACACTGCCTCATAAATCATTAGCCGTGTATGAGCTAGAACCACCAGAGAGTTTCACTGGGATCGTGGGGAC | 0.267 |

Set 5 — technique: DHFR PCA, deep sequencing; sample: yeast; with: (+)-ABA 710 µM; baseline: wild-type fitted maximum; direction: higher = stronger binding
Target: ABI1, truncated, D143A, DHFR fusion (Arabidopsis thaliana)
Setting: methotrexate growth selection, single substitutions
Starting sequence: PYL1, truncated, DHFR fusion (Arabidopsis thaliana); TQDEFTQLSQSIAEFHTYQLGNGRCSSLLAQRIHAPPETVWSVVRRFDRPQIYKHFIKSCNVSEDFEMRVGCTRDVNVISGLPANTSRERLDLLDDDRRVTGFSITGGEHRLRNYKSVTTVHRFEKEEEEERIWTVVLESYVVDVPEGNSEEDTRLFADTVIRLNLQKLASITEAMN; partner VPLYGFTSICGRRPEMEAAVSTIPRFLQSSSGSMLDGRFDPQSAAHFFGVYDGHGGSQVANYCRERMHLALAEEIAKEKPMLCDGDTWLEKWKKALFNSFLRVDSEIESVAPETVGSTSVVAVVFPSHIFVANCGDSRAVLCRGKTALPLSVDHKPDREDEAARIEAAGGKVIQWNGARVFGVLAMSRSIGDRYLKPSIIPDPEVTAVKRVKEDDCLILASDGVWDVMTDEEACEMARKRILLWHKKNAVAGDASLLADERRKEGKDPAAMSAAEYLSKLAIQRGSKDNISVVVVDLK
| Change | relative binding score |
| --- | --- |
| S150M | 83.2% |
| T17L | 87.7% |
| G71D | 74.1% |
| E152S | 101% |
| L138N | 35.3% |
| G23K | 96.9% |
| L166G | 9.53% |
| E38C | 88.7% |
| I12P | 56.8% |
| G148A | 90.2% |
| G71Y | 52.8% |
| V40Q | -10.2% |
| G23I | 83.2% |
| G21S | 101% |
| L156G | 95% |
| F103V | 51.1% |
